Published values of several laboratories.
Parts stem from different laboratories: compare values within a part only.

Series 1 — method: protein-binding microarray; form: double-stranded DNA, one strand shown; sample: in vitro; tested at: 2200 nM top; notes: 60-bp whole probe; with: salmon DNA 0.4 mg/ml; reference: random background probes; reading: higher = stronger binding; all sequences stand within: GCCTAGCAC … GTCTTGATTCGCTTGACGCTGCTG
Target: Interferon regulatory factor 7, full length, phosphomimetic (IRF7, Homo sapiens, UniProt Q92985, residues 1-503, S471D/S472D/S475D/S476D/S477D/S483D/S484D/S487D)
Construct (chain): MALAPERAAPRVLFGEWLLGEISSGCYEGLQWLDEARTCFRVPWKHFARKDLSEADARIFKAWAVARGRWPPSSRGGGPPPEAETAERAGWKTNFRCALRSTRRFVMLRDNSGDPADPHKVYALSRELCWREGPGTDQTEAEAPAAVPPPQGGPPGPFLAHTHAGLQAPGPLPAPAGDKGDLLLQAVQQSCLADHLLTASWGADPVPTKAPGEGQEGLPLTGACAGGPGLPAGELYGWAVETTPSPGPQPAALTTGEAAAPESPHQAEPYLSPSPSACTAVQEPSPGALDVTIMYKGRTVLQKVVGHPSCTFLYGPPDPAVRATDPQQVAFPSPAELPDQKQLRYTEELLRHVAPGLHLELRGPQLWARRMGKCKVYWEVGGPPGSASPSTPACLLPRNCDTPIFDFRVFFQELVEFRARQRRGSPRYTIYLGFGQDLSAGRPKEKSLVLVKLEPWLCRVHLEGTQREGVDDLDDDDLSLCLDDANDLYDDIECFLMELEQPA
| Sequence | fitted relative affinity [z-score] |
| --- | --- |
| GAGGGTGTTCTTTTCTGTTGGTGCTAG | 1.61 |
| TTTGGTATCGGTATCGGTTAGTGCTAG | 1.7 |
| GACGAACGGGGGACTGGAGACGTGCTA | 0.617 |
| AAATTTTGATGAACTTAAGCGTGCTAG | -0.728 |
| TGAGGACTGGACTATCGGTTAGTGCTA | -0.492 |

Series 2 — method: protein binding microarray; form: double-stranded DNA, one strand shown; sample: in vitro; tested at: not given; reference: not given; reading: higher = stronger binding
Target: Histone acetyltransferase KAT6A, both winged helices, GST fusion (KAT6A, Homo sapiens, UniProt Q92794, residues 1-181)
Notes: 8-mer, flanks averaged, mean of 2 arrays, mostly near background
Construct (chain): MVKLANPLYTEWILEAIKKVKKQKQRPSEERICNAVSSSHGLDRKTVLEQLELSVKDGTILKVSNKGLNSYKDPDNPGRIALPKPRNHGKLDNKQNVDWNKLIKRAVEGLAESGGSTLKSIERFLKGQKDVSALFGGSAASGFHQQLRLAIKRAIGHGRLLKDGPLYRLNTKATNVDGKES
| Sequence | E-score |
| --- | --- |
| CAGACGGA | 0.102 |
| AAGACTTG | -0.0308 |
| CTTGAAAC | -0.0303 |
| GGTTCGGA | 0.0712 |
| ATAGTCGC | 0.0998 |

Series 3 — method: aptamer microarray, sandwich; form: DNA with 2'F-ANA; sample: in vitro; tested at: 200 nM; with: Cy3 exosite-II aptamer, 400 nM; reading: higher = stronger binding; sequence: GGTTGGTGTGGTTGG
Target: Prothrombin, mature alpha-thrombin (F2, Homo sapiens, UniProt P00734)
Notes: whole 15-mer aptamer, many near background
| Modification | mean fluorescence intensity [a.u.] |
| --- | --- |
| 2'F-ANA at 4 8 9 10 13 | 93.7 |
| 2'F-ANA at 1 2 3 4 10 14 15 | 50.5 |
| 2'F-ANA at 1 2 3 4 5 7 8 9 10 13 14 | 51.4 |
| 2'F-ANA at 1 2 3 4 6 11 13 | 111 |
| 2'F-ANA at 2 5 6 8 9 14 15 | 47.3 |

Single results of other studies
| Substance | target | test | test system | conditions | scale | endpoint | value |
| --- | --- | --- | --- | --- | --- | --- | --- |
| PhoQ, residues 284 288 289 292 302 303 TVTVVA | PhoP, residues 12 14 15 18 19 VQGLL (Escherichia coli, UniProt P23836) | Sort-seq, item: YFP reporter | E. coli | PhoQ-PhoP variant library, with: 10 µM Mg2+ | reference: high Mg2+ state, higher = stronger signaling | fold induction | 16.1 |

For quick reference, copied from above (series 3):
| Modification | mean fluorescence intensity [a.u.] |
| --- | --- |
| 2'F-ANA at 4 8 9 10 13 | 93.7 |
| 2'F-ANA at 1 2 3 4 10 14 15 | 50.5 |
